Assay results pooled from the literature.
Numbered parts are unrelated; each lists some results of a single study. “And” joins repeats or separate records; there may be more than shown.
Sequence of UniProt P28223 (whole entry, looked up): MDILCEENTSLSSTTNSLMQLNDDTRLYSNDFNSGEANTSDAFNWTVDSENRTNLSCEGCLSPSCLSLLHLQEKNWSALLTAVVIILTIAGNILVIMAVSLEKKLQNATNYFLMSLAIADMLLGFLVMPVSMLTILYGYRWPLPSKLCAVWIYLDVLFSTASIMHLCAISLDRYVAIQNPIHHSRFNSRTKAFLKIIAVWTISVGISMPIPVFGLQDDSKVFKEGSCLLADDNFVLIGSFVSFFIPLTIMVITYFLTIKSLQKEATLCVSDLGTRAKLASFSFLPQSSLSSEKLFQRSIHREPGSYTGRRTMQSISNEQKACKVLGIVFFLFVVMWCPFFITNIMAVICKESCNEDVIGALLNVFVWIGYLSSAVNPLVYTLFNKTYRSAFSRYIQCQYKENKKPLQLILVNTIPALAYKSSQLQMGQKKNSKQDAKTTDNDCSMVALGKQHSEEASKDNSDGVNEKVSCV
Sequence of UniProt P28335 (whole entry, looked up): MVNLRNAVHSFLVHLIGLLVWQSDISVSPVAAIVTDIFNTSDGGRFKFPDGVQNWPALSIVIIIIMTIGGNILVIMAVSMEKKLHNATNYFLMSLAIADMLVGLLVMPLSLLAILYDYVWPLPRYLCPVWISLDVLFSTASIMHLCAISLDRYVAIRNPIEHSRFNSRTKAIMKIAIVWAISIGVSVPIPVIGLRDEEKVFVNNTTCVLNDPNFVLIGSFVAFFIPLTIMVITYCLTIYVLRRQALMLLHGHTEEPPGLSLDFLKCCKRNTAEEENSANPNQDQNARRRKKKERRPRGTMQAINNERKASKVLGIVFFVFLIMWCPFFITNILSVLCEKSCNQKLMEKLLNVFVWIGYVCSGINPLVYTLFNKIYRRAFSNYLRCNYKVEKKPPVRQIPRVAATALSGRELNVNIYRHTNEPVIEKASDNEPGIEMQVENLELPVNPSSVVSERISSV

Sample 1 — cell line: HaCaT; tested at: 100 µM; time: 36 h
For COc1cccc2c1cc([N+](=O)[O-])c1c(C(=O)O)cc3c(c12)OCO3, the viability was 36.1%.
N#Cc1ccccc1-c1cc(-c2ccccn2)cn(-c2ccccc2)c1=O gave a viability of 47.5%.
With COc1cc2c(cc1OC)C13CCN4CC5=CCOC6CC(=O)N2C1C6C5CC43 (centres unmarked) the viability was 84.5%.
For Oc1cc(Cl)ccc1Oc1ccc(Cl)cc1Cl, the viability was 5.32%.
The viability of C[C@H]1CC(=O)C[C@@H]2CC[C@H]3[C@@H]4CC[C@H](O)[C@@]4(C)CC[C@@H]3[C@]21C is reported as 61%.
The viability of Cc1cccc([C@H](C)c2cnc[nH]2)c1C is reported as 108%.
With C[C@]12CC[C@H]3[C@@H](CCC4=CC(=O)CC[C@@]43C)[C@@H]1CC[C@@H]2OC(=O)CCc1ccccc1 the viability was 108%.
Cl[C@H]1[C@H](Cl)[C@@H](Cl)[C@@H](Cl)[C@H](Cl)[C@H]1Cl gave a viability of 19.3%.
For Cn1c(CCCC(=O)O)nc2cc(N(CCCl)CCCl)ccc21, the viability was 72.2%.

Sample 2 — cell line: HEK-293T-ACE2-TMPRSS2; technique: cell count; tested at: 10 µM
The viability of CCOC(=O)c1cnc(S/C=C/C(=O)c2ccc(C)cc2)nc1N is reported as 73%.
O=C(OCCc1ccccc1)c1sc2ccccc2c1Cl gave a viability of 121%.
Oc1ccc(CN2CCN(c3cccc(C(F)(F)F)c3)CC2)c2cccnc12 has a viability of 66%.
CC(C)(C)N1COc2c(cc(Cl)c3cccnc23)C1 has a viability of 71%.
Cc1ccc(/C(C#N)=C2\C=CC(=NO)C(Cl)=C2)cc1 has a viability of 72%.
Cc1cc2c(C(C)C)c(O)c(O)c(C=O)c2c(O)c1-c1c(C)cc2c(C(C)C)c(O)c(O)c(C=O)c2c1O has a viability of 109%.
For COc1cccc(C(=O)N/N=C(\C)c2ccccc2O)c1, the viability was 84%.
With Cc1cnc(C)c(-c2cc(O)c3c(c2)CN(C(=O)C2CCOCC2)CCO3)n1 the viability was 68%.
With Cc1ccsc1CNc1ccc(C(=O)N2CCCC(Cn3ccnc3C)C2)cc1 (centres unmarked) the viability was 68%.
For CCc1c(O)cc(O)c(C(=O)c2ccc(OCCN3CCOCC3)c(OC)c2)c1CC(=O)N(CCOC)CCOC, the viability was 112%.
COC(=O)c1ccccc1-c1c2ccc(=O)cc-2oc2cc(O)ccc12 has a viability of 103%.
With Cc1occc1C(=O)N[C@@H]1CN(c2ncccn2)C[C@H]1CO the viability was 115%.
For COc1ccc(C2CC(=O)Nc3cc(O)c(C)cc32)cc1Cn1cccn1 (centres unmarked), the viability was 102%.
CCSc1nc(CC(=O)N(C)Cc2nonc2C)cs1 has a viability of 68%.
The viability of CCCS(=O)(=O)c1ncc(Cl)c(C(=O)Nc2ccc(OCC)cc2)n1 is reported as 65%.
O=C(Nc1ccc2c(c1)OCCO2)c1ccccc1-n1ncc(Cl)c(Cl)c1=O has a viability of 71%.
The viability of CCCCc1ccc(Nc2cc(C)nc(-n3nc(C)cc3C)n2)cc1 is reported as 73%.
For C=CC(=O)N1CC(=Cc2ccc([N+](=O)[O-])cc2)C(=O)/C(=C/c2ccc([N+](=O)[O-])cc2)C1, the viability was 149%.
The viability of CCc1noc([C@@H]2CC(F)(F)CN2C(=O)C2CCOCC2)n1 is reported as 97%.
For c1ccc(Nc2nccc(-c3cccnc3)n2)cc1, the viability was 77%.
For Cn1c2c(c(=O)n(C)c1=O)C(c1cccc(Br)c1)C1=C(COC1=O)N2 (centres unmarked), the viability was 88%.
CC1CCCCN1Cc1c(O)ccc2cc(-c3nc4ccccc4s3)c(=O)oc12 (centres unmarked) gave a viability of 89%.
For Cc1cc(C(=O)N(C)Cc2nc3ccccc3n2C)cc(S(N)(=O)=O)c1C, the viability was 66%.
CCOC(=O)N1CCN(C(=O)Cn2ncc(Cl)c(Cl)c2=O)CC1 gave a viability of 65%.
With NC(=S)N/N=C/c1ncc(C(F)(F)F)cc1Cl the viability was 73%.

Sample 3 — cell line: HEK-293T/ACE2; tested at: 10 µM; time: 16 h; reference: vehicle
For CCN(CCO)CCCC(C)Nc1ccnc2cc(Cl)ccc12 (centres unmarked), the viability was 98.3%.
C[C@H]1COc2c(N3CCN(C)CC3)c(F)cc3c(=O)c(C(=O)O)cn1c23 gave a viability of 102%.
CN(C)C(=O)Oc1ccc[n+](C)c1 gave a viability of 105%.
N[C@@H](Cc1ccc(N(CCCl)CCCl)cc1)C(=O)O gave a viability of 88.8%.
The viability of NC(=O)c1ncn([C@@H]2O[C@H](CO)[C@@H](O)[C@H]2O)n1 is reported as 102%.
With CO[C@H]1/C=C/O[C@@]2(C)Oc3c(C)c(O)c4c(O)c(c(/C=N/N5CCN(C)CC5)c(O)c4c3C2=O)NC(=O)/C(C)=C\C=C\[C@H](C)[C@H](O)[C@@H](C)[C@@H](O)[C@@H](C)[C@H](OC(C)=O)[C@@H]1C the viability was 101%.
Nc1ccncc1 has a viability of 102%.
Cc1ccc(C)c(OCCCC(C)(C)C(=O)O)c1 has a viability of 100%.
For CCCNC(C)C(=O)Nc1c(C)csc1C(=O)OC (centres unmarked), the viability was 100%.
O=S(=O)(O)CCS has a viability of 101%.

Mixed results
pknB: Serine/threonine-protein kinase PknB (pknB, Mycobacterium tuberculosis, UniProt P9WI81)
Sequence of UniProt P9WI81 (whole entry, looked up): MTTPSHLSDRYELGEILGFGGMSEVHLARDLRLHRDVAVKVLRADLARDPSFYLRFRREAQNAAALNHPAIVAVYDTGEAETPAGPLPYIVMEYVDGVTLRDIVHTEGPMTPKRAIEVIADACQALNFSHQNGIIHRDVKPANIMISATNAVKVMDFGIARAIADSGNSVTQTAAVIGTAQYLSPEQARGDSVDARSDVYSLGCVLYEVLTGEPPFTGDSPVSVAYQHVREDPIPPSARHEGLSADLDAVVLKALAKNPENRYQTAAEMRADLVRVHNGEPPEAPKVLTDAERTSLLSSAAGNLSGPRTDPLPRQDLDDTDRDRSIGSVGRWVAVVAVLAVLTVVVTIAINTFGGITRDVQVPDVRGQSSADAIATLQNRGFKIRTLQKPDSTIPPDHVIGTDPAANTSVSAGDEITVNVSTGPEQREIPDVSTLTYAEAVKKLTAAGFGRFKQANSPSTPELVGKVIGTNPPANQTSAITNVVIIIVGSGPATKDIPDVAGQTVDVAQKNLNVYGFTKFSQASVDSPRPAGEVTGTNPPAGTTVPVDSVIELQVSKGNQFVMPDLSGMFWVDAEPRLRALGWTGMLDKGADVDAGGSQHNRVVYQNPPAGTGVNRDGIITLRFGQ
O=C1CCc2cc(Nc3cc(OC4CCOCC4)c([N+](=O)[O-])cc3Cl)ccc2N1 gave an inhibition of -11.9% (HTR2C (Homo sapiens, UniProt P28335); binding, radioligand binding; 10 µM).
With CC(C)c1ccc(CN2CCN(CCO)CC2)cc1 the remaining compound was 64.9% (human, microsomes or S9; 2 µM, 0.5 h).
Cc1nc(Cc2cccc(C(F)(F)F)c2)sc1-c1ccc(C(N)=O)nc1 gave a remaining binding of 99% (pknB; cell-free assay, competition with immobilised ligand; 1 µM).
For O=C1CCC(N2Cc3c(ccc4c3OCC43CCN(Cc4ccccc4)CC3)C2=O)C(=O)N1 (centres unmarked), the CL was 21.7 mL/min/kg and 20.8 mL/min/kg (Sprague Dawley rat, male, plasma; intravenous, 1.0 mg/kg).
The remaining binding of COc1ccc2c(c1)O[C@H](c1ccc(OC)c(OC)c1)C[C@@H]2NC(=O)C1(c2ccc3c(c2)OC(F)(F)O3)CC1 is reported as 88% (pknB; cell-free assay, competition with immobilised ligand; 1 µM).
For CN1CCN(C(=O)C(C)(C)c2ccc(C(=O)Nc3cn4cc(-c5ccncc5)ccc4n3)cc2)CC1, the inhibition was -2.63% (HTR2A (Homo sapiens, UniProt P28223); binding, radioligand binding; 10 µM).

For quick reference, copied from above (sample 1):
Cl[C@H]1[C@H](Cl)[C@@H](Cl)[C@@H](Cl)[C@H](Cl)[C@H]1Cl gave a viability of 19.3%.
N#Cc1ccccc1-c1cc(-c2ccccn2)cn(-c2ccccc2)c1=O gave a viability of 47.5%.
For Cn1c(CCCC(=O)O)nc2cc(N(CCCl)CCCl)ccc21, the viability was 72.2%.
For COc1cccc2c1cc([N+](=O)[O-])c1c(C(=O)O)cc3c(c12)OCO3, the viability was 36.1%.
With COc1cc2c(cc1OC)C13CCN4CC5=CCOC6CC(=O)N2C1C6C5CC43 (centres unmarked) the viability was 84.5%.
With C[C@]12CC[C@H]3[C@@H](CCC4=CC(=O)CC[C@@]43C)[C@@H]1CC[C@@H]2OC(=O)CCc1ccccc1 the viability was 108%.
